# Measurements from different studies.
# Compare with care: the assays were run in different laboratories. ± marks the error that the study gave.
Structure (SMILES),organism,assay,test system,setting,how to read,quantity,value
CC(=O)Oc1ccc(OC(C)=O)c2cc3c(cc12)CCCC3(C)C,Leishmania infantum,,promastigotes,,relative to: HepG2 CC50 over promastigote EC50,selectivity index,1.8
Cc1ccc(S(=O)(=O)N(CCc2nnc(S)o2)c2ccc(Cl)cc2)cc1,Aspergillus niger,cup plate method,,100 µg/mL,relative to: fluconazole,relative inhibition,48.5%
CCCCn1c2ccccc2c2ccnc(-c3ccc(OC)cc3)c21,Echinococcus granulosus sensu stricto,,protoscoleces,"200 µM, 48 h",,killed protoscoleces,> 90%
C/C(=C\c1ccco1)[N+](=O)[O-],Leishmania amazonensis,motility arrest,promastigotes,"72 h, 26 °C",,minimal parasiticidal concentration,22.8 ± 0.9 µM
CC(=O)[O-].O.O.O.O.[Ni+2].[O-]c1ccc(Br)cc1C=NCCN1CCOCC1,Aspergillus niger,,,20 µL of 100 µM per disc,,inhibition zone diameter,28 mm
Oc1c(Br)cc(Br)c2nc3c(C(F)(F)F)cc(C(F)(F)F)cc3nc12,Staphylococcus aureus,Calgary biofilm device,"MRSA ATCC BAA-44, biofilm-released planktonic cells","24 h, 37 °C",,MBC,0.3 µM
N=C(N)NCCC[C@@H]1NC(=O)[C@H](CCCNC(=N)N)NC(=O)[C@H](CCCNC(=N)N)NC(=O)[C@H](Cc2ccc3ccccc3c2)NC(=O)[C@H](Cc2c[nH]c3ccccc23)NC(=O)[C@H](Cc2ccc3ccccc3c2)NC(=O)[C@H](CCCNC(=N)N)NC1=O,Aspergillus fumigatus,XTT,Af-293,MIC,,biofilm mass reduction,31 to 36%
Fc1ccc2c(c1)c1nc3ccc(Br)cc3c-1cn2Cc1cn(-c2ccccc2I)nn1,Giardia duodenalis trophozoites,"UHPLC-Q-TOF-MS, measured: lignoceric acid",,"IC50, 0.2787 h",relative to: 0.25% DMSO,fold change,-28.8
CCCCCCN=Cc1[nH]c(-c2ccc[nH]2)cc1OC,Plasmodium yoelii,,"Kenya strain MRA-428, mice","oral, 5 mg/kg daily for 4 days, day 5",,parasitaemia suppression,90%
CNC(CC(C)C)C(=O)NC1C(=O)NC(CC(N)=O)C(=O)NC2C(=O)NC3C(=O)NC(C(=O)NC(C(=O)NCCCNC(=N)N)c4cc(O)cc(O)c4-c4cc3ccc4O)C(O)c3ccc(c(Cl)c3)Oc3cc2cc(c3OC2OC(CO)C(O)C(O)C2OC2CC(C)(NCc3ccc(-c4ccc(Cl)cc4)cc3)C(O)C(C)O2)Oc2ccc(cc2Cl)C1O (stereo not drawn),Enterococcus faecalis and Enterococcus faecium,,VanA BM4166 and ATCC BAA-2317,with: lipoteichoic acid 100 µg/mL,relative to: without lipoteichoic acid,MIC fold increase,8 fold
C[C@@H](c1ccn(Cc2c(F)cc(Cl)cc2F)n1)[C@](O)(Cn1cnnn1)c1ccc(F)cc1F,Aspergillus fumigatus,"growth, broth microdilution",7544,"48 h, 35 °C, ≥50% inhibition",,MIC,> 64 µg/mL
Cc1ncc([N+](=O)[O-])n1CCOCc1nnc(SCC(=O)c2ccc(F)cc2)o1,Serratia marcescens,,DMSO,"60 µg/mL, 24 h, 37 °C",,inhibition zone diameter,10 to 15 mm
CN[C@H](CC(C)C)C(=O)N[C@H]1C(=O)N[C@@H](CC(N)=O)C(=O)N[C@H]2C(=O)N[C@H]3C(=O)N[C@H](C(=O)N[C@H](C(=O)O)c4cc(O)cc(O)c4-c4cc3ccc4O)[C@H](O)c3ccc(c(Cl)c3)Oc3cc2cc(c3O[C@@H]2O[C@H](CO)[C@@H](O)[C@H](O)[C@H]2O[C@H]2C[C@](C)(NCc3ccc(C(=O)OCCCCCCN(Cc4ccccn4)Cc4ccccn4)cc3)[C@H](O)[C@H](C)O2)Oc2ccc(cc2Cl)[C@H]1O,Bacillus subtilis,"protein synthesis, measured: YtkL",168,"concentration not given, 10 min, at peak effective concentration",relative to: untreated,regulation factor,5.7 ± 1.3
Cc1cc(=O)oc2c(F)c(OC3C=CC(=O)O3)c(F)cc12 (racemic),Pisum sativum,,rms1-10 mutant,"applied to axillary bud, 5 µM",,shoot branching inhibition,inactive
COC1=CC(c2ccc[nH]2)=NC1=CNC1CCCC1,Plasmodium yoelii,,"Kenya strain MRA-428, mice","oral, 100 mg/kg daily for 4 days, day 5",,parasitaemia suppression,100%
C=C(C)[C@@H]1CCC=C2CC[C@]3(C)[C@H](CC[C@@H]4[C@@]5(C)CCCNC(C)(C)[C@@H]5CC[C@]43C)[C@H]21,Human papillomavirus 11,"viral replication, luciferase reporter",C-33 A,,,EC90,> 1200 nM
C[C@@H](c1ccn(Cc2ccc(Cl)cc2)n1)[C@](O)(Cn1cnnn1)c1ccc(F)cc1F,Aspergillus fumigatus,"growth, broth microdilution",7544,"48 h, 35 °C, ≥50% inhibition",,MIC,64 µg/mL
COc1ccc(-c2nc(-c3ccccc3OC)[nH]c2-c2ccc(OC)cc2)cc1,Schistosoma mansoni,,mature male and female worms,"25 µM, 96 h",,worm killing,0%
COc1ccc(-n2c(=O)c(C(=O)C3C(=O)CCCC3=O)nc3c(Cl)cccc32)cc1,Schoenoplectus juncoides,"herbicidal activity, paddy pot test, visual rating",,28 days,,ED90,6.3 g a.i./10 a
CC(C)C[C@@H]1NC(=S)NC1=O,Trypanosoma cruzi trypomastigote,,Y,,relative to: LLC-MK2 CC50 over IC50,selectivity ratio,4.5
COC1=CC(c2ccc[nH]2)=NC1=Cc1[nH]c(Cc2ccc(Cl)cc2)cc1Cc1ccc(Cl)cc1,Plasmodium yoelii,,"Kenya strain MRA-428, mice","oral, 5 mg/kg daily for 4 days, day 5",,parasitaemia suppression,90%
CCNC1=CC(=O)c2cc3c(cc2C1=O)CCCC3(C)C,Leishmania infantum,,promastigotes,,relative to: HepG2 CC50 over promastigote EC50,selectivity index,7.5
Cc1ncc([N+](=O)[O-])n1CCOCc1nnc(SCC(=O)c2ccc(Br)cc2)o1,Serratia marcescens,,DMSO,"60 µg/mL, 24 h, 37 °C",,inhibition zone diameter,15 to 20 mm
CCc1c(C)[nH]c(C=NC23CC4CC(CC(C4)C2)C3)c1C,Plasmodium yoelii,,"Kenya strain MRA-428, mice","oral, 50 mg/kg daily for 4 days, day 5",,parasitaemia suppression,67%
CC(C)CCCc1ccc2c(c1)C(=O)C(Br)=C(Br)C2=O,Leishmania infantum,,"intracellular amastigotes, ex vivo mouse splenic explants",,relative to: HepG2 CC50 over amastigote EC50,selectivity index,0.16
CC(C)C[C@@H]1NC(=O)[C@H](CCCCN)NC(=O)[C@H](C(C)C)NC(=O)[C@H](CCCCN)NC(=O)[C@@H]2CCCN2C(=O)[C@@H](Cc2ccc(O)cc2)NC(=O)[C@H](CCCCN)NC(=O)[C@H](CCCCN)NC(=O)[C@H](C(C)C)NC(=O)[C@@H]2CCCN2C(=O)[C@@H](Cc2ccc(O)cc2)NC1=O,fungi,,,"24 h, 2 strains",,MIC geometric mean,181 µg/mL
C[C@@H](c1ccn(Cc2ccc(OC(F)(F)F)cc2)n1)[C@](O)(Cn1cnnn1)c1ccc(F)cc1F,Aspergillus fumigatus,"growth, broth microdilution",7544,"48 h, 35 °C, ≥50% inhibition",,MIC,> 64 µg/mL
C=C(C)[C@@H]1CC[C@]2(C(=O)NC(CO)Cc3ccccc3)CC[C@]3(C)[C@H](CC[C@@H]4[C@@]5(C)CCCNC(C)(C)[C@@H]5CC[C@]43C)[C@@H]12 (stereo partly drawn),Human papillomavirus 11,"viral replication, luciferase reporter",C-33 A,,,EC90,> 240 nM
CC(C)C[C@@H]1NC(=O)[C@H](CCCCN)NC(=O)[C@H](C(C)C)NC(=O)[C@@H]2CCCN2C(=O)[C@@H](Cc2ccc(O)cc2)NC(=O)[C@H](CC(C)C)NC(=O)[C@H](CCCCN)NC(=O)[C@H](C(C)C)NC(=O)[C@H](CCCCN)NC(=O)[C@H](CC(C)C)NC(=O)[C@@H]2CCCN2C(=O)[C@@H](Cc2ccc(O)cc2)NC(=O)[C@H](CCCCN)NC1=O,fungi,,,"24 h, 2 strains",,MIC geometric mean,5.7 µg/mL
Nc1ccn(C[C@@H](CO)OCP(=O)(O)OCCCS(=O)(=O)CCCCCCCCCCC2CCC2)c(=O)n1,human gammaherpesvirus 4,qPCR,Akata,,relative to: CC50 over EC50,selectivity index,> 3
COC1=CC(c2ccc[nH]2)=NC1=CNC1CCCCCCC1,Plasmodium yoelii,,"Kenya strain MRA-428, mice","oral, day 5, dosed 4 days",,ED50,< 5 mg/kg/day
C[C@@H](c1ccn(Cc2cccc(F)c2F)n1)[C@](O)(Cn1cnnn1)c1ccc(F)cc1F,Aspergillus fumigatus,"growth, broth microdilution",7544,"48 h, 35 °C, ≥50% inhibition",,MIC,> 64 µg/mL
CC(C)C[C@@H]1NC(=O)[C@H](CCCCN)NC(=O)[C@H](C(C)C)NC(=O)[C@@H]2CCCN2C(=O)[C@@H](Cc2ccc(O)cc2)NC(=O)[C@H](CC(C)C)NC(=O)[C@H](CCCCN)NC(=O)[C@H](C(C)C)NC(=O)[C@H](CCCCN)NC(=O)[C@H](CC(C)C)NC(=O)[C@@H]2CCCN2C(=O)[C@@H](Cc2ccc(O)cc2)NC(=O)[C@H](C(C)C)NC(=O)[C@H](CCCCN)NC1=O,fungi,,,"24 h, 2 strains",,MIC geometric mean,11.3 µg/mL
CC(=O)N[C@H](CCCCN)C(=O)N[C@H](CC(C)C)C(=O)N[C@H](CCCCN)C(=O)N[C@H](CO)C(=O)N[C@H](CC(C)C)C(=O)N[C@H](CC(C)C)C(=O)N[C@H](CCCCN)C(=O)N[C@@H](C(=O)N[C@H](CC(C)C)C(=O)N[C@H](CO)C(=O)N[C@H](CCCCN)C(=O)N[C@H](C)C(=O)N[C@H](CCCCN)C(=O)N[C@H](CCCCN)C(=O)N[C@H](CCCCN)C(=O)N[C@H](CCCCN)C(=O)N[C@H](CC(C)C)C(=O)N[C@H](CCCCN)C(=O)N[C@@H](C(=O)N[C@H](CC(C)C)C(=O)N[C@H](CC(C)C)C(=O)N[C@H](CCCCN)C(=O)N[C@H](C)C(=O)N[C@H](CC(C)C)C(=O)N[C@H](CO)C(=O)N[C@H](CCCCN)C(N)=O)[C@H](C)O)[C@H](C)O,Acinetobacter baumannii,,11 isolates,,,MIC geometric mean,0.4 µM
Cc1ccc(N(CCc2nnc(S)o2)S(=O)(=O)c2ccc(C)cc2)cc1,Aspergillus niger,cup plate method,,100 µg/mL,relative to: fluconazole,relative inhibition,78.8%
COC1=CC(=O)c2cc3c(cc2C1=O)CCCC3(C)C,Leishmania infantum,,"intracellular amastigotes, ex vivo mouse splenic explants",,relative to: HepG2 CC50 over amastigote EC50,selectivity index,2.1

# Excerpt of the above:
Structure (SMILES),organism,assay,test system,setting,how to read,quantity,value
C/C(=C\c1ccco1)[N+](=O)[O-],Leishmania amazonensis,motility arrest,promastigotes,"72 h, 26 °C",,minimal parasiticidal concentration,22.8 ± 0.9 µM
CC(=O)[O-].O.O.O.O.[Ni+2].[O-]c1ccc(Br)cc1C=NCCN1CCOCC1,Aspergillus niger,,,20 µL of 100 µM per disc,,inhibition zone diameter,28 mm
Oc1c(Br)cc(Br)c2nc3c(C(F)(F)F)cc(C(F)(F)F)cc3nc12,Staphylococcus aureus,Calgary biofilm device,"MRSA ATCC BAA-44, biofilm-released planktonic cells","24 h, 37 °C",,MBC,0.3 µM
N=C(N)NCCC[C@@H]1NC(=O)[C@H](CCCNC(=N)N)NC(=O)[C@H](CCCNC(=N)N)NC(=O)[C@H](Cc2ccc3ccccc3c2)NC(=O)[C@H](Cc2c[nH]c3ccccc23)NC(=O)[C@H](Cc2ccc3ccccc3c2)NC(=O)[C@H](CCCNC(=N)N)NC1=O,Aspergillus fumigatus,XTT,Af-293,MIC,,biofilm mass reduction,31 to 36%
